# Measured values pooled from the literature.
# Lines come from different studies, so protocols differ.
SMILES,assay,system,setting,helicity
CC[C@H](C)[C@H](NC(=O)CNC(=O)[C@H](CC(=O)O)NC(=O)[C@H](CCCNC(=N)N)NC(=O)[C@@H](NC(=O)[C@H](CC(N)=O)NC(=O)[C@H](CCC(N)=O)NC(=O)CNC(=O)[C@@H](NC(=O)[C@H](CCCCN)NC(=O)[C@H](CCC(=O)O)NC(=O)[C@@H](NC(=O)[C@H](CCCCN)NC(=O)[C@H](CCCCN)NC(=O)[C@H](Cc1ccccc1)NC(=O)[C@H](CC(C)C)NC(=O)[C@H](CCCCN)NC(=O)[C@H](Cc1c[nH]c2ccccc12)NC(=O)[C@@H](N)CCCCN)[C@@H](C)CC)C(C)C)[C@@H](C)CC)C(=O)N[C@H](C(=O)N[C@@H](CCCCN)C(=O)N[C@@H](C)C(=O)NCC(=O)N1CCC[C@H]1C(=O)N[C@@H](C)C(=O)N[C@H](C(=O)N[C@@H](C)C(=O)N[C@H](C(=O)N[C@H](C(=O)NCC(=O)N[C@@H](CCC(N)=O)C(=O)N[C@@H](C)C(=O)N[C@H](C(=O)N[C@@H](CCC(N)=O)C(=O)N[C@H](C(=O)N[C@@H](C)C(=O)N[C@@H](CCCCN)C(N)=O)[C@@H](C)CC)[C@@H](C)O)C(C)C)C(C)C)C(C)C)[C@@H](C)CC,circular dichroism,phosphate buffer 10 mM,"1 to 5 µM, pH 7.5, approximate",~10%
CC[C@H](C)[C@H](NC(=O)[C@H](CCCCN)NC(=O)CNC(=O)[C@H](CC(C)C)NC(=O)[C@H](CC(C)C)NC(=O)[C@H](Cc1c[nH]cn1)NC(=O)[C@H](Cc1ccccc1)NC(=O)[C@@H](N)C(C)C)C(=O)N[C@H](C(=O)N[C@@H](Cc1c[nH]cn1)C(=O)N[C@@H](Cc1c[nH]cn1)C(=O)N[C@H](C(=O)NCC(=O)N[C@@H](CC(N)=O)C(=O)N[C@@H](Cc1ccccc1)C(=O)N[C@H](C(=O)N[C@@H](Cc1ccc(O)c(O)c1)C(=O)NCC(=O)N[C@@H](Cc1ccccc1)C(=O)N[C@@H](CO)C(=O)N[C@@H](Cc1c[nH]cn1)C(=O)N[C@H](C(=O)N[C@@H](Cc1ccccc1)C(N)=O)C(C)C)C(C)C)C(C)C)[C@@H](C)CC,CD spectroscopy,50% TFE,50 µM,36.3%
CC[C@H](C)[C@H](NC(=O)[C@H](Cc1c[nH]c2ccccc12)NC(=O)[C@H](CCCCN)NC(=O)[C@@H](NC(=O)[C@H](CC(C)C)NC(=O)[C@H](CC(=O)O)NC(=O)CNC(=O)[C@@H](NC(=O)[C@@H](NC(=O)[C@H](CO)NC(=O)[C@@H](NC(=O)[C@@H](NC(=O)[C@H](CC(=O)O)NC(=O)[C@H](CCC(N)=O)NC(=O)[C@H](C)NC(=O)[C@H](CCSC)NC=O)[C@@H](C)CC)[C@@H](C)CC)[C@@H](C)O)[C@@H](C)CC)C(C)C)C(=O)N[C@H](C(=O)N[C@@H](CC(=O)O)C(=O)N[C@H](C(=O)N[C@H](C(=O)N[C@@H](CC(N)=O)C(=O)N[C@@H](CCCCN)C(=O)N[C@@H](Cc1ccccc1)C(=O)N[C@H](C(=O)N[C@@H](CCCCN)C(=O)N[C@@H](CCCCN)C(=O)O)[C@@H](C)O)C(C)C)[C@@H](C)O)[C@@H](C)CC,circular dichroism,POPC vesicles 5 mM,"20 µM, fully membrane bound",100%
CC[C@H](C)[C@H](NC(=O)[C@H](Cc1ccccc1)NC(=O)[C@H](CC(=O)O)NC(=O)[C@@H]1CNC(=O)NCCC[C@H](NC(=O)[C@H](CC(C)C)NC(=O)[C@H](CCCNC(=N)N)NC(=O)[C@H](CCSC)NC(=O)[C@H](C)N)C(=O)N[C@@H](CCCCN)C(=O)N[C@@H](Cc2ccccc2)C(=O)N[C@@H](Cc2ccccc2)C(=O)N1)C(=O)N[C@@H](CC(C)C)C(=O)N[C@@H](CCC(N)=O)C(=O)N[C@@H](CCCNC(=N)N)C(=O)N[C@@H](CCCCN)C(=O)N[C@@H](CCCCN)C(=O)O,circular dichroism,20% TFE in PBS,"200 µM, pH 7.4, 25 °C",17%
CC[C@H](C)[C@H](NC(=O)[C@H](Cc1ccccc1)NC(=O)[C@@H]1CCn2cc(nn2)COCc2cn(nn2)CC[C@H](NC(=O)[C@H](Cc2ccc(O)cc2)NC(=O)[C@H](CO)NC(=O)[C@H](CO)NC(=O)[C@@H](NC(=O)[C@H](CC(=O)O)NC(=O)[C@H](CO)NC(=O)[C@@H](NC(=O)[C@H](Cc2ccccc2)NC(=O)[C@@H](NC(=O)CNC(=O)[C@H](CCC(=O)O)NC(=O)[C@H](C)NC(=O)[C@@H](N)Cc2c[nH]cn2)[C@@H](C)O)[C@@H](C)O)C(C)C)C(=O)N[C@@H](CCC(=O)O)C(=O)NCC(=O)N[C@@H](CCC(N)=O)C(=O)N[C@@H](C)C(=O)N[C@@H](C)C(=O)N[C@@H](CCCCN)C(=O)N1)C(=O)N[C@@H](C)C(=O)N[C@@H](Cc1c[nH]c2ccccc12)C(=O)N[C@@H](CC(C)C)C(=O)N[C@H](C(=O)N[C@@H](CCCCN)C(=O)NCC(=O)N[C@@H](CCCNC(=N)N)C(N)=O)C(C)C,circular dichroism,50% TFE,,104%
CC[C@H](C)[C@H](NC(=O)[C@H](Cc1c[nH]c2ccccc12)NC(=O)[C@H](CCCCN)NC(=O)[C@@H](NC(=O)[C@H](CC(C)C)NC(=O)[C@H](CCCCN)NC(=O)CNC(=O)[C@@H](NC(=O)[C@@H](NC(=O)[C@H](CO)NC(=O)[C@@H](NC(=O)[C@@H](NC(=O)[C@H](CCCCN)NC(=O)[C@H](CCC(N)=O)NC(=O)[C@H](C)NC(=O)[C@H](CCSC)NC=O)[C@@H](C)CC)[C@@H](C)CC)[C@@H](C)O)[C@@H](C)CC)C(C)C)C(=O)N[C@H](C(=O)N[C@@H](CCCCN)C(=O)N[C@H](C(=O)N[C@H](C(=O)N[C@@H](CC(N)=O)C(=O)N[C@@H](CCCCN)C(=O)N[C@@H](Cc1ccccc1)C(=O)N[C@H](C(=O)N[C@@H](CCCCN)C(=O)N[C@@H](CCCCN)C(=O)O)[C@@H](C)O)C(C)C)[C@@H](C)O)[C@@H](C)CC (racemic),circular dichroism,POPC vesicles 5 mM,"20 µM, fully membrane bound",52%
CC(C)C[C@H](NC(=O)[C@H](CCC(=O)O)NC(=O)[C@H](C)NC(=O)[C@H](CCC(=O)O)NC(=O)[C@H](CCC(=O)O)NC(=O)[C@H](Cc1c[nH]cn1)NC(=O)[C@H](CCCNC(=N)N)NC(=O)[C@H](CCC(=O)O)NC(=O)[C@H](CC(N)=O)NC(=O)[C@H](CCCCN)NC(=O)[C@H](CC(C)C)NC(=O)[C@H](CCCNC(=N)N)NC(=O)[C@H](CCC(N)=O)NC(=O)[C@H](CC(C)C)NC(=O)[C@H](CCC(N)=O)NC(=O)[C@H](C)NC(=O)[C@H](CC(N)=O)NC(=O)[C@H](C)NC(=O)[C@@H](NC(=O)[C@H](CC(C)C)NC(=O)[C@H](CCCCN)NC(=O)[C@H](CCC(=O)O)NC(=O)[C@@H](NC(=O)[C@H](CO)NC(=O)CN)C(C)C)[C@@H](C)O)C(=O)N[C@@H](CCC(=O)O)C(=O)N[C@@H](CCCNC(=N)N)C(=O)N[C@@H](CC(C)C)C(=O)N[C@@H](CCCCN)C(=O)N[C@@H](CO)C(=O)N[C@@H](CCC(=O)O)C(=O)N[C@@H](Cc1ccc(O)cc1)C(=O)O,circular dichroism,sodium phosphate,"30 µM, pH 7.4, room temperature",12%
CC[C@H](C)[C@H](NC(=O)[C@H](Cc1ccccc1)NC(=O)[C@H](CC(=O)O)NC(=O)[C@@H]1CNC(=O)NCC[C@H](NC(=O)[C@H](CC(C)C)NC(=O)[C@H](CCCNC(=N)N)NC(=O)[C@H](CCSC)NC(=O)[C@H](C)N)C(=O)N[C@@H](CCCCN)C(=O)N[C@@H](Cc2ccccc2)C(=O)N[C@@H](Cc2ccccc2)C(=O)N1)C(=O)N[C@@H](CC(C)C)C(=O)N[C@@H](CCC(N)=O)C(=O)N[C@@H](CCCNC(=N)N)C(=O)N[C@@H](CCCCN)C(=O)N[C@@H](CCCCN)C(=O)O,circular dichroism,20% TFE in PBS,"200 µM, pH 7.4, 25 °C",8.2%
CC(C)C[C@H](NC(=O)[C@H](CCC(=O)O)NC(=O)[C@H](C)NC(=O)[C@H](CCC(=O)O)NC(=O)[C@H](CCC(=O)O)NC(=O)[C@H](Cc1c[nH]cn1)NC(=O)[C@H](CCCNC(=N)N)NC(=O)[C@H](CCC(=O)O)NC(=O)[C@H](CC(N)=O)NC(=O)[C@H](CCCCN)NC(=O)[C@H](CC(C)C)NC(=O)[C@H](CCCNC(=N)N)NC(=O)[C@H](CCC(N)=O)NC(=O)[C@H](CC(C)C)NC(=O)[C@H](CCC(=O)O)NC(=O)[C@H](C)NC(=O)[C@H](C)NC(=O)[C@H](C)NC(=O)[C@@H](NC(=O)[C@H](CC(C)C)NC(=O)[C@H](CCCCN)NC(=O)[C@H](CCC(=O)O)NC(=O)[C@@H](NC(=O)[C@H](CO)NC(=O)CN)C(C)C)[C@@H](C)O)C(=O)N[C@@H](CCC(=O)O)C(=O)N[C@@H](CCCNC(=N)N)C(=O)N[C@@H](CC(C)C)C(=O)N[C@@H](CCCCN)C(=O)N[C@@H](CO)C(=O)N[C@@H](CCC(=O)O)C(=O)N[C@@H](Cc1ccc(O)cc1)C(=O)O,circular dichroism,sodium phosphate,"30 µM, pH 7.4, room temperature",29%
CC[C@H](C)[C@H](NC(=O)[C@H](Cc1ccccc1)NC(=O)[C@H](CC(=O)O)NC(=O)[C@@H]1CCCNC(=O)NCC[C@H](NC(=O)[C@H](CC(C)C)NC(=O)[C@H](CCCNC(=N)N)NC(=O)[C@H](CCSC)NC(=O)[C@H](C)N)C(=O)N[C@@H](CCCCN)C(=O)N[C@@H](Cc2ccccc2)C(=O)N[C@@H](Cc2ccccc2)C(=O)N1)C(=O)N[C@@H](CC(C)C)C(=O)N[C@@H](CCC(N)=O)C(=O)N[C@@H](CCCNC(=N)N)C(=O)N[C@@H](CCCCN)C(=O)N[C@@H](CCCCN)C(=O)O,circular dichroism,20% TFE in PBS,"200 µM, pH 7.4, 25 °C",18.3%

# Repeated from above:
SMILES,assay,system,setting,helicity
CC[C@H](C)[C@H](NC(=O)[C@H](CCCCN)NC(=O)CNC(=O)[C@H](CC(C)C)NC(=O)[C@H](CC(C)C)NC(=O)[C@H](Cc1c[nH]cn1)NC(=O)[C@H](Cc1ccccc1)NC(=O)[C@@H](N)C(C)C)C(=O)N[C@H](C(=O)N[C@@H](Cc1c[nH]cn1)C(=O)N[C@@H](Cc1c[nH]cn1)C(=O)N[C@H](C(=O)NCC(=O)N[C@@H](CC(N)=O)C(=O)N[C@@H](Cc1ccccc1)C(=O)N[C@H](C(=O)N[C@@H](Cc1ccc(O)c(O)c1)C(=O)NCC(=O)N[C@@H](Cc1ccccc1)C(=O)N[C@@H](CO)C(=O)N[C@@H](Cc1c[nH]cn1)C(=O)N[C@H](C(=O)N[C@@H](Cc1ccccc1)C(N)=O)C(C)C)C(C)C)C(C)C)[C@@H](C)CC,CD spectroscopy,50% TFE,50 µM,36.3%
